# Published values from different studies.
# Each line is one published result; not all experiments were run side by side. “And” joins repeats or separate records; there may be more than shown. ± gives the spread as reported.
# Chain of UniProt Q9Y2J8 (whole entry, looked up): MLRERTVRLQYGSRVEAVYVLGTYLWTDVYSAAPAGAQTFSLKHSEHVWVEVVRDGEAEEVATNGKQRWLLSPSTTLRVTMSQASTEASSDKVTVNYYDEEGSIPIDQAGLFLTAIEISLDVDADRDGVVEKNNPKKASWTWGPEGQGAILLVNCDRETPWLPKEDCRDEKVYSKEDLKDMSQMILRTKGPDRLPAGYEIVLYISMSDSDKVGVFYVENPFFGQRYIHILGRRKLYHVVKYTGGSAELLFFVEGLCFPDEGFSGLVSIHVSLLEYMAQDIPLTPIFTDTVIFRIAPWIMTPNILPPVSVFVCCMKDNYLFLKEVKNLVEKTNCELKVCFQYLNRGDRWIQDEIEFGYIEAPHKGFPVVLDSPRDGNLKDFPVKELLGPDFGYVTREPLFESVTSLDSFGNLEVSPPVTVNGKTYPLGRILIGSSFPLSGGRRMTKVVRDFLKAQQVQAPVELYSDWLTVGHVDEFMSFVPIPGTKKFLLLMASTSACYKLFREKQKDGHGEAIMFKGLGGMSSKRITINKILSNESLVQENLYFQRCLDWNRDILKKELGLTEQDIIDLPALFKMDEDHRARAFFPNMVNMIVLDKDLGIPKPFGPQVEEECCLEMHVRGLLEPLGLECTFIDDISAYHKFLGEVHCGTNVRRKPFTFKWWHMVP
# Chain of UniProt Q15139 (whole entry, looked up): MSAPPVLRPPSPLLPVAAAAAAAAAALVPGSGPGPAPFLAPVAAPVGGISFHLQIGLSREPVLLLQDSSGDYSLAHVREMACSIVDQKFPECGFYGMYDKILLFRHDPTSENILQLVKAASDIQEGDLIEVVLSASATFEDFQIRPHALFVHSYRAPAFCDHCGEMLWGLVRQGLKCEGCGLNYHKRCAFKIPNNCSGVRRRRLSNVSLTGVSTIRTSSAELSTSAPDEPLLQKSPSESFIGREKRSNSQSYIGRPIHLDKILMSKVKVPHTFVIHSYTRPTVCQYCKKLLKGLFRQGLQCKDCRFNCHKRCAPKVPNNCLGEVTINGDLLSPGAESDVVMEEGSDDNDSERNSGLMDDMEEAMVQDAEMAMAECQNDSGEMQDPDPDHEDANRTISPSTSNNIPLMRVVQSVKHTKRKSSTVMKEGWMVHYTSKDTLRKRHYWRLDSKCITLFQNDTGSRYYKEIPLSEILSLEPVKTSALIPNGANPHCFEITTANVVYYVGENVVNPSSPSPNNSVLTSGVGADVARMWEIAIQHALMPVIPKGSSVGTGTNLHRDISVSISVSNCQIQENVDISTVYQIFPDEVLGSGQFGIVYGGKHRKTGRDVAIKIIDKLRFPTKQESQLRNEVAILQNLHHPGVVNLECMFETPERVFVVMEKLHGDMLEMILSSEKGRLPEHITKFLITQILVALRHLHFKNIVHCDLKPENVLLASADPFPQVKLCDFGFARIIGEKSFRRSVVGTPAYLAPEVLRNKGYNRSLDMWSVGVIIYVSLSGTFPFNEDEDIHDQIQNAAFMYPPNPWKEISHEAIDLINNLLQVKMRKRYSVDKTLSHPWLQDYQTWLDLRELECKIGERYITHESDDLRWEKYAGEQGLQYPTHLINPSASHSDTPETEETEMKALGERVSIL
# Chain of UniProt Q09013 (whole entry, looked up): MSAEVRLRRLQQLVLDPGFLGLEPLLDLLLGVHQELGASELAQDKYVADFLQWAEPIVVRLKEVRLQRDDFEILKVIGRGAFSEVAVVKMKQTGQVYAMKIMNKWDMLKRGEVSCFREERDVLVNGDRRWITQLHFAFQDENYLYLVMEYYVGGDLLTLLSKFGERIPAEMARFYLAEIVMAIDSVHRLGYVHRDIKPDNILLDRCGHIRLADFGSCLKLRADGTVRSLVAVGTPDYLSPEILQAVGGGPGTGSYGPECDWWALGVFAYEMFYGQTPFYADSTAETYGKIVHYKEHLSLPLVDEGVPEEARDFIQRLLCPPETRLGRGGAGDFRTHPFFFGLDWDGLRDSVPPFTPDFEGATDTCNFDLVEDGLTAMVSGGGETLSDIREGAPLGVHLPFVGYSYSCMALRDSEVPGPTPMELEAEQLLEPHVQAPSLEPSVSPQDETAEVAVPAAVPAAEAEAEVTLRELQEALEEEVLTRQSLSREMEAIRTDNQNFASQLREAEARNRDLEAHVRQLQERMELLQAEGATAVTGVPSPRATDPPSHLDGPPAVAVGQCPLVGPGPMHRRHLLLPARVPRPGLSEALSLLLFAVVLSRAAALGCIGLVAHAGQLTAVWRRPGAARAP
# Chain of UniProt P48039 (whole entry, looked up): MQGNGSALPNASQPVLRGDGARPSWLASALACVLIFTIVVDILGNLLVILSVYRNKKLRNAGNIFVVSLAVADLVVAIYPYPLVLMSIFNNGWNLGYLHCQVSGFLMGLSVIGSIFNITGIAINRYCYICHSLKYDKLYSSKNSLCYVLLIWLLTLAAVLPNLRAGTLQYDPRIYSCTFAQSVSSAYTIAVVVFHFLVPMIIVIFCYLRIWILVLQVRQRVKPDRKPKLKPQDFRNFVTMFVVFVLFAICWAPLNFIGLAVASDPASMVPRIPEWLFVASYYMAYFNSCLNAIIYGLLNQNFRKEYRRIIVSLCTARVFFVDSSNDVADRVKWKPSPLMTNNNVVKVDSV
# Chain of UniProt Q01959 (whole entry, looked up): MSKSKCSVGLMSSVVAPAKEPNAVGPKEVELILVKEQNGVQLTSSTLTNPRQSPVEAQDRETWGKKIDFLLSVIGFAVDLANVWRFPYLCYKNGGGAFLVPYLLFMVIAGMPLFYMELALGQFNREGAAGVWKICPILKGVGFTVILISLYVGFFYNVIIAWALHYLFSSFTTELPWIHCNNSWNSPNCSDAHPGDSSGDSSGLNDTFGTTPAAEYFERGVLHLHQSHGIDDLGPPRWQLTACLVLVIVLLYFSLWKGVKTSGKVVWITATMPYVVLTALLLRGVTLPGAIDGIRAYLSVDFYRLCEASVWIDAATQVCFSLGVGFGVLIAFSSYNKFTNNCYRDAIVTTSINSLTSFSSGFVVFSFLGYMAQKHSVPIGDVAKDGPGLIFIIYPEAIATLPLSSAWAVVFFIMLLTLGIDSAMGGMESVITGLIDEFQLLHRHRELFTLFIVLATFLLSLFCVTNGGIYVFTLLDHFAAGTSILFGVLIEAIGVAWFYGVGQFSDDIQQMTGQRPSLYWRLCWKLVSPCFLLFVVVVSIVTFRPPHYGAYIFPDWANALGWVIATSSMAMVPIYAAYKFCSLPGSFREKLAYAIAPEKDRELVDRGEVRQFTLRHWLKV
# Chain of UniProt O94804 (whole entry, looked up): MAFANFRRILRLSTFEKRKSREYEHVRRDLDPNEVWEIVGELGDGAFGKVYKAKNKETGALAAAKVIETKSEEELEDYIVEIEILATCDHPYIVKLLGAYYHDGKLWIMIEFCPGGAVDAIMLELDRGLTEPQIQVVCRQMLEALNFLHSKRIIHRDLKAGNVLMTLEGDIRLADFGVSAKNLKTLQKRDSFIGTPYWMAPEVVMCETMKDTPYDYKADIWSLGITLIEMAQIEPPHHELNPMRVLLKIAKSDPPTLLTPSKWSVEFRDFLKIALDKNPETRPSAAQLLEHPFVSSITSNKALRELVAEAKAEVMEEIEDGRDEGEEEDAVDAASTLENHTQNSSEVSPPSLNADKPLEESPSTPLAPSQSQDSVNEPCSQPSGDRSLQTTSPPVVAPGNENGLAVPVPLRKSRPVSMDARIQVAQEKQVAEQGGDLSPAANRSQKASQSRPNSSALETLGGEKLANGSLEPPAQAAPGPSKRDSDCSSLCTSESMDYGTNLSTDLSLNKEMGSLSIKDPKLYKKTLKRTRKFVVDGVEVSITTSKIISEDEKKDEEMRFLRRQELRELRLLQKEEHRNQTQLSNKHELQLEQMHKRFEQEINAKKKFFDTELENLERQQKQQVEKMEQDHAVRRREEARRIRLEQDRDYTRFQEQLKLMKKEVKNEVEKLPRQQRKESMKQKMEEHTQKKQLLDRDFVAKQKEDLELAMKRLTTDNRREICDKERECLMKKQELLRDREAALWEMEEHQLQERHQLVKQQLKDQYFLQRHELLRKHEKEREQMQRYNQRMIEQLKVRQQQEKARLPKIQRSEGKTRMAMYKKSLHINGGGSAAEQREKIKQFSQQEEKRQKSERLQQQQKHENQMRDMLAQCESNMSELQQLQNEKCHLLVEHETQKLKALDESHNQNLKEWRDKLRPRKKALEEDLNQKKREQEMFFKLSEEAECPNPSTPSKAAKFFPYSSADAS
# Chain of UniProt P15056 (whole entry, looked up): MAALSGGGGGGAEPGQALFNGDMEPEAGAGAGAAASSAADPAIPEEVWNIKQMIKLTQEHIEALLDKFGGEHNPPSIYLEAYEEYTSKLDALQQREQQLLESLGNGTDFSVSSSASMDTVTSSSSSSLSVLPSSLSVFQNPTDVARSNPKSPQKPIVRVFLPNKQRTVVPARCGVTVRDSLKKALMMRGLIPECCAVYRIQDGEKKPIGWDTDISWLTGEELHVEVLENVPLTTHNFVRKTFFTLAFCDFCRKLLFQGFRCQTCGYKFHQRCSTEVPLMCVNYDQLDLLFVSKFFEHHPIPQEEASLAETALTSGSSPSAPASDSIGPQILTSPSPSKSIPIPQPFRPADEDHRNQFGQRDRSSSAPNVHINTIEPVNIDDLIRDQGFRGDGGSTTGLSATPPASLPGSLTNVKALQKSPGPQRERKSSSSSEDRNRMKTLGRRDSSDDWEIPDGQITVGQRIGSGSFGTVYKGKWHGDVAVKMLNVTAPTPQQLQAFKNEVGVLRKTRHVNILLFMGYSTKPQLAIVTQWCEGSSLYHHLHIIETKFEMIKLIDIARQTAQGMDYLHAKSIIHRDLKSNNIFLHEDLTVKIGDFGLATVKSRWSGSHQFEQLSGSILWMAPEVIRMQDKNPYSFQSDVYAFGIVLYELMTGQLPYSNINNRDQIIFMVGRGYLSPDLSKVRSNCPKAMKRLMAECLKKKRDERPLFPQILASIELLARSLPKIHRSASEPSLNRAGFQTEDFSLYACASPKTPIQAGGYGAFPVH
SMILES,tested on,test,test system,setting,how to read,quantity,result
CCn1ccc(-c2cc(C(C)NC(=O)c3cc(N4CC5CC4CN5C)ccc3C)c3ccccc3n2)n1 (stereo not drawn),Vero E6,,,15.62 µM,,viability,80% and 78.5% and 81%
O=C1NC(=O)c2c1c1cc(F)c[n+]3c1c1c2c2cc(O)ccc2[n]1[Ru-4]312([N]=C=S)[S+]3CC[S+]1CC[S+]2CC3 (stereo not drawn),"MARK1 (Homo sapiens, UniProt Q9P0L2)",enzyme activity,,"100 nM, human enzyme, added: 10 µM ATP",relative to: untreated,remaining activity,16%
O=C1NC2(CC2)COc2ncc(F)cc2[C@H]2COCCN2c2ccn3ncc1c3n2,,,"Sprague-Dawley rat, male, spleen","oral, 10 mg/kg/day, 4 weeks, end of treatment",,organ-to-brain weight ratio,82.1 ± 36.1%
Cc1sc2c(c1C)C(c1ccc(Cl)cc1)=NC(CC(=O)OC(C)(C)C)c1nnc(C)n1-2 (stereo not drawn),"MTNR1A (Homo sapiens, UniProt P48039)","ligand displacement, radioligand",,1 µM,,inhibition,29%
Cc1ccc(OCCN(C)C)cc1C(=O)N[C@H](C)c1cc(-c2scnc2C)nc2ccccc12,Vero E6,,,31.25 µM,,viability,65.2% and 74.4%
CCOCC1C(c2ccc(Cl)c(Cl)c2)CC2CCC1N2C (stereo not drawn),"SLC6A3 (Homo sapiens, UniProt Q01959)",dopamine uptake,,"1e-05 µM, 0.03333 h, added: [3H]dopamine",relative to: no inhibitor,remaining activity,109%
CN(C)[C@H]1C[C@@]23CC[C@@]4(O2)C(=CC[C@]2(C)[C@@H](c5ccc6ccncc6c5)CC[C@H]24)C=C3[C@@H](O)[C@@H]1O,"STK10 (Homo sapiens, UniProt O94804)","ATP probe labelling, inhibitor, KiNativ profiling",,1 µM,,inhibition,-7.5%
Nc1ccc(/C=C/C(=O)N2CCc3c(oc4c(-c5ccc(F)cc5)cc(-c5ccc(C(=O)N6CCC(F)(F)CC6)cn5)cc34)C2)cn1,"BRAF (Homo sapiens, UniProt P15056)","binding, competition with immobilised ligand",,1 µM,,remaining binding,100%
CS(C)(=O)=Nc1ccc(-c2ccc(-c3nc4cc(O[C@@H]5CO[C@H]6[C@@H]5OC[C@H]6O)[nH]c4cc3F)cc2)cc1,"DMPK (Homo sapiens, UniProt Q09013)","enzyme activity, inhibitor",,10 µM,,inhibition,0%
CC(C)[C@H]1NC(=O)C[C@H]2/C=C/CCSSC[C@@H](NC1=O)C(=O)N[C@H](Cc1cccc3ccccc13)C(=O)NCC(=O)O2,"PRKD1 (Homo sapiens, UniProt Q15139)","enzyme activity, inhibitor",,10 µM,,inhibition,0.5%
CC(C)CC(C(=O)N1CC2(CC1C#N)C(=O)Nc1ccccc12)N(C)C(=O)c1cc2c(F)cc(F)c(F)c2[nH]1 (stereo not drawn),"Replicase polyprotein 1ab, main protease (rep, Human coronavirus HKU1, UniProt P0C6X2)",enzyme activity,,0.01001 µM,,remaining activity,24.1%
N[C@H](C(=O)N1CCCC1)C1CCN(c2nccc3c(-c4ncc(Cl)cc4Cl)cccc23)CC1,"PADI2 (Homo sapiens, UniProt Q9Y2J8)",enzyme activity,,"0.0983 µM, high-affinity site, added: Ca2+ 1.5 mM",,kcat,1.56 s⁻¹
